Results collected from several papers.
Lines come from different studies, so protocols differ. ± gives the spread as reported.

CCC1CC2C(C)=CC3C(=O)CCCC3C=CC(C)=CC2C(=O)O1 (stereo not drawn) — synaptophysin level increase (western blot; PS19 mouse (MAPT P301S), hippocampus; oral, 30 mg/kg, 3 weeks; baseline: vehicle): 10.4%
CN1CCN(c2ccc(Nc3ncc(Cl)c(Nc4ccccc4P(C)(C)=O)n3)cc2Br)CC1 — Ki67 level (immunohistochemistry; nude mice, PC9-OR xenograft, tumour; 30 mg/kg; baseline: vehicle): decreased
COc1ccc2c(c1OC)C(C(Cl)(Cl)Cl)N1CCc3cc4c(cc3C1=C2)OCO4 (stereo not drawn) — ALT activity (rat, STZ-induced diabetic, serum; oral, 12 mg/kg, day 28): 79 ± 2.5 U/L
COc1ccc(C2CC(c3ccc(C)cc3)=Nc3ccccc3S2)cc1OC (stereo not drawn) — blood glucose (Wistar rat, STZ-induced diabetes; oral, 20 mg/kg once daily, day 21): 120 ± 4.88 mg/dL
CC(=O)N[C@@H](CC(N)=O)C(=O)NCC(=O)N[C@@H](CCCNC(=N)N)C(=O)N[C@@H](C)C(N)=O — rate constant succinimide to β-Asp (1H NMR; sodium phosphate buffer 50 mM; pH 7.4, 55 °C): 5.83 h⁻¹
COC(=O)C=CCCC(NC(=O)c1ccncc1C(=O)O)C(=O)NC(C(=O)N1CC(=O)CC1C(=O)NC(C(=O)NC(C(N)=O)C1CCCCC1)C1CCCCC1)C(C)(C)C (stereo not drawn) — AUC of jugular flow (New Zealand White rabbit; dose not given, 35 to 135 min, venous stasis reperfusion, unit not given; baseline: baseline): 662
CCCCCC(O)C=CC1OC2OC(C1CC=CCCCC(=O)O)C2(F)F (stereo not drawn) — Emax (platelet aggregation, agonist, light transmission aggregometry; human platelet-rich plasma): 69.3 ± 4.5%
CC(CCC(=O)NCc1ccc(C(=O)NO)cc1)C1CCC2C3C(O)CC4CC(O)CCC4(C)C3CCC12C (stereo not drawn) — increase in ciliated cholangiocytes (PCK rats, liver; dose not given; baseline: untreated): 182%
CCCCCCCCCCCCCCCC(=O)N[C@@H](CCC(=O)NCCCC[C@H](NC(=O)[C@H](CC(=O)O)NC(=O)[C@H](CO)NC(=O)[C@@H](NC(=O)[C@H](Cc1ccccc1)NC(=O)[C@@H](NC(=O)CNC(=O)[C@H](CCC(N)=O)NC(=O)[C@H](CO)NC(=O)[C@@H](N)Cc1c[nH]cn1)[C@@H](C)O)[C@@H](C)O)C(=O)N[C@@H](CO)C(=O)N[C@@H](CCC(=O)O)C(=O)N[C@@H](Cc1ccc(O)cc1)C(=O)N[C@@H](CC(C)C)C(=O)N[C@@H](CC(=O)O)C(=O)N[C@@H](CO)C(=O)N[C@@H](CCC(=O)O)C(=O)N[C@@H](CCCNC(=N)N)C(=O)N[C@@H](C)C(=O)N[C@@H](CCCNC(=N)N)C(=O)N[C@@H](CC(=O)O)C(=O)N[C@@H](Cc1ccccc1)C(=O)N[C@H](C(=O)N[C@@H](C)C(=O)N[C@@H](Cc1c[nH]c2ccccc12)C(=O)N[C@@H](CC(C)C)C(=O)N[C@@H](CCC(=O)O)C(=O)N[C@@H](C)C(=O)NCC(=O)NCC(=O)O)C(C)C)C(=O)O — cumulative food intake (diet-induced obese mouse; subcutaneous, 30 nmol/kg daily, end of treatment): 50 g
CC(C)(C)ONc1nc(Nc2ccnc(C(F)(F)F)c2)nc(-c2cccc(C(F)(F)F)n2)n1 — 2-HG level (refers to: 2-hydroxyglutarate; mouse U-87 MG IDH2 R140Q xenograft, tumour; oral, 18.05 mg/kg, up to 0.5 h): 47.2 ng/mg
CCc1nnc(NS(=O)(=O)c2ccc(NC(=S)NC(=O)/C=C/c3ccc(F)cc3)cc2)s1 — cleaved caspase-3 level (NXS2 allograft, A/J mice, tumour; intraperitoneal, 20 mg/kg daily, 3 weeks; baseline: vehicle): increased
N[C@@H](CCC(=O)N[C@@H](CS[Se]Cc1ccc(-c2cc(C(F)(F)F)nn2-c2ccc(S(N)(=O)=O)cc2)cc1)C(=O)NCC(=O)O)C(=O)O — decrease in tumour volume (nude mouse, UACC-903 xenograft; i.p., 0.127 µmol alternate days, 4 weeks; baseline: vehicle): ≤ 70%
COc1c2c(cc3oc(C)cc(=O)c13)O[C@H](C(C)(C)O[C@@H]1O[C@H](CO)[C@@H](O)[C@H](O)[C@H]1O)C2 — hot plate latency (analgesia; mouse; oral, 1 mg/kg, 2 h): 10.4 ± 1.39 s
N[C@@H](CO)C(=O)N1CCC[C@H]1C(=O)NCC(=O)NCC(=O)O — ΔG‡ at 298.15 K (diketopiperazine formation, Arrhenius plot, ESI-MS; 1-propanol; 70, 80, 90 °C, 0.5% acetic acid): 93 ± 5 kJ/mol
CC(C)(CCCC/C=C/CCCCCC(C)(C)C(=O)O)C(=O)O — reduction in plasma TG (rhesus monkey, spontaneous hyperlipidemia; 20 mg/kg, 2 weeks; baseline: baseline): 20.9%
CCOc1c(C(C)(C)O)sc2cnc(Nc3ccc(N4CCC(N5CC6(COC6)C5)CC4)cc3OC)nc12 — lung weight to tibia length (C57BL/6J mouse, TAC heart failure; oral, 30 mg/kg/day, 3 weeks after TAC, 7 days dosing): decreased
Cc1cccc(Cn2ncc3c4cc(F)c(CN(C)C)cc4n(C)c3c2=O)n1 — retinal PK activity (rd10 mouse, retina; intraperitoneal, 50 mg/kg, 7 days (P21)): increased
C[C@H](NC(=O)COC(=O)[C@H](C)NC(=O)CO)C(=O)O — depolymerization rate constant (water; pH 6, 37 °C): 0.516 h⁻¹
CCCCCCCOC(=O)Cc1c(C)n(C(=O)c2ccc(Cl)cc2)c2ccc(OC)cc12 — latency of nociceptive response (hot plate test; BALB/c mice; 50 mg/kg, 90 min): 15.4 ± 0.83 s
COc1cc(O)c(Cl)cc1/C=C/C(=O)c1ccc(C(F)(F)F)cc1 — protein level (immunofluorescence, refers to: occludin; mouse LPS acute lung injury, lung; dose not given): increased
N[C@@H](Cc1c[nH]c2ccccc12)C(=O)N1CCC[C@H]1C(=O)NCC(=O)NCC(=O)O — ΔG‡ at 298.15 K (diketopiperazine formation, Arrhenius plot, ESI-MS; 1-propanol; 70, 80, 90 °C, 0.5% acetic acid): 100 ± 7 kJ/mol
C=C1C[C@@]23CC[C@H]4[C@@](C)(CCC[C@@]4(C)C(=O)O[C@@H]4O[C@H](CO)[C@@H](O)[C@H](O)[C@H]4O)[C@@H]2CC[C@]1(O[C@@H]1O[C@H](CO[C@H]2O[C@H](CO)[C@@H](O)[C@H](O)[C@H]2O)[C@@H](O)[C@H](O)[C@H]1O[C@@H]1O[C@H](CO)[C@@H](O)[C@H](O)[C@H]1O)C3 — protein level (immunoblot, refers to: phospho-perilipin; C57BL/6N mouse, high-fat diet, gonadal white adipose tissue; drinking water, 0.2 g/L, 16 weeks; baseline: vehicle): decreased
O=C([O-])CN1CCN(CC(=O)[O-])CCN(CC(=O)NC[C@H]2CC[C@H](C(=O)N[C@H](Cc3cnc4ccccc4c3)C(=O)NCCCC[C@H](NC(=O)N[C@@H](CCC(=O)O)C(=O)O)C(=O)O)CC2)CCN(CC(=O)[O-])CC1.[64Cu+2] — mean SUVmax (PET/CT; patients suspected prostate cancer, lymph node lesions; 2 h post-injection): 7.93 ± 3.83
O=C(O)CNC(=O)CNC(=O)[C@@H]1CCCN1C(=O)[C@@H]1CCCN1 — ΔG‡ at 298.15 K (diketopiperazine formation, Arrhenius plot, ESI-MS; 1-propanol; 70, 80, 90 °C, 0.5% acetic acid): 95 ± 1 kJ/mol
NC[C@@H](C(=O)Nc1ccc(-c2cn[nH]c2)cc1)c1ccccc1 — mean IOP reduction (NZW rabbits, magnetic bead-induced ocular hypertension; topical, 0.1 %): 22%
CC(=O)[O-].Nc1ccc(C([O-])=NN=Cc2ccc(OCC(=O)Nc3ccc(Cl)cc3)cc2)cc1.O.O.O.[Co+2] — inhibition (ABTS radical scavenging, ABTS; concentration not given, 6 min): 54.3%
COC1C=CC=C(C)C(=O)NC2=CC(=O)C(NCCN(C)C)=C(CC(C)CC(OC)C(O)C(C)C=C(C)C1OC(N)=O)C2=O (stereo not drawn) — muscle gene signature (GSEA; mouse, Rh30 xenograft; dose not given): increased
CC(C)c1cnc(-c2cc(Cl)ccc2F)cc1Nc1ccncc1C(=O)NC(CO)CO — inhibition (flow cytometry, refers to: pSMAD2/3; patients, peripheral monocytes; 500 mg): ~90%
CC(=O)[O-].O.O.O.O.[Mn+2].[O-]c1ccc(Br)cc1C=NCCN1CCOCC1 — inhibition (nitric oxide scavenging; 240 µM): 52%
CC1=CCC23OC2(C)CCC2C(CN(C)C)C(=O)OC2C13.Cl (stereo not drawn) — inhibition of early lung metastasis (in vivo; dose not given, unit not given; baseline: compound over vinblastine): 2
COc1cc(/C=C/C(O)=C/C(=O)/C=C/c2ccc(O[C@@H]3O[C@H](C(=O)O)[C@@H](O)[C@H](O)[C@H]3O)c(OC)c2)ccc1O — IκB staining (immunohistochemistry; HCT-116 (KRAS mutant, TP53 null), mouse xenograft, tumour; ip, 90 mg/kg, day 21, not statistically significant; baseline: control mice): increased
CCCCCCOC(=O)Cc1c(C)n(C(=O)c2ccc(Cl)cc2)c2ccc(OC)cc12 — latency of nociceptive response (hot plate test; BALB/c mice; 100 mg/kg, 120 min): 16.8 ± 0.54 s
O=C(NCCCCc1ccccc1)n1c(=O)oc2cc(-c3ccc(F)cc3)ccc21 — lung ceramide levels (refers to: ceramide d18:1/14:0, d18:1/16:0, d18:1/18:0; mouse, lung; intraperitoneal, 10 mg/kg, 3 h): increased
C=C(c1cc(F)c(C(=O)O)c(F)c1)c1cc2c(cc1C)C(C)(C)CCC2(C)C — log2 fold change (RNA sequencing, refers to: Epha3 mRNA; rat, brain; dose not given, 24 h, single dose; baseline: vehicle): -0.89
COc1ccc(C2CC(c3ccc(C)cc3)=Nc3ccccc3S2)cc1 (stereo not drawn) — blood glucose (rat, normal, overnight fasted; oral, 20 mg/kg, 120 min, oral glucose tolerance test, together with: glucose 3 g/kg oral): 113 ± 4.13 mg/dL
CC[C@@H](C)N([11CH3])C(=O)c1nc(-c2ccccc2Cl)c2ccccc2n1 — specific volume of distribution (binding, PET; rhesus monkey, cerebellum; dose not given; baseline: baseline minus preblock VT): 9.3 mL/cm³
C=C(c1ncc(C(=O)O)cn1)c1cc2c(cc1C)C(C)(C)CCC2(C)C — log2 fold change (RNA sequencing, refers to: Abca1 mRNA; rat, brain; dose not given, 24 h, single dose; baseline: vehicle): -2.06
COC(=O)N[C@H]1CC[C@@H](Nc2cc(NCc3ccccc3F)n3ncc(C(C)C)c3n2)CC1 — tumour [18F]FLT uptake decrease (PET; mice with HCT-116 xenograft; 15 mg/kg twice daily, 48 h; baseline: vehicle): 1.4 fold
Cc1nc(C)c(C=[N+]([O-])C(C)(C)C)nc1C — protein level increase (Western blot, refers to: HO-1; mouse, MPTP model, substantia nigra cytosol; 30 mg/kg): 39.4%
CC(=O)N[C@@H](CCCNC(=N)N)C(=O)NCCOCCOCC(=O)N[C@H](C)C(=O)N1CCC[C@H]1B(O)O — reduction of clot lysis time (plasma clot lysis; normal human plasma; 50 µM, 72 h, 29 °C, at total lysis, together with: uPA): 17%
C=CC[C@H]1OC(=O)CCNC(=O)[C@H](C)N(C)C(=O)[C@H]([C@@H](C)CC)N(C)C(=O)[C@H]([C@@H](C)CC)NC(=O)[C@@H]2[C@@H](C)CCN2C1=O — protein phosphorylation (western blot, refers to: p-PDGFR-β, p-AKT, p-ERK; mouse bile duct ligation fibrosis, liver; 5 to 10 mg/kg/day, 8 days from day 6): decreased
CC(C)(O)c1ccc(N2Cc3c(ccnc3-c3ccc(F)cc3OCC(F)(F)F)C2=O)cc1 — glucosylceramide level (Gaucher disease mouse model, plasma; 30 mg/kg, 2 months once daily; baseline: vehicle): 21 ± 2%
COc1c2c(cc3oc(COC4OC(CO)C(O)C(O)C4O)cc(=O)c13)OC(C(C)(C)O)C2 (stereo not drawn) — hot plate latency (analgesia; mouse; oral, 1 mg/kg, 1.5 h): 9.67 ± 1.16 s
CC(C)C[C@H](N)C(=O)N1CCC[C@H]1C(=O)NCC(=O)NCC(=O)O — ΔG‡ at 298.15 K (diketopiperazine formation, Arrhenius plot, ESI-MS; 1-propanol; 70, 80, 90 °C, 0.5% acetic acid): 97 ± 6 kJ/mol
CCC[C@@H]1O[C@@H]2C[C@H]3[C@@H]4C[C@H](F)C5=CC(=O)CC[C@]5(C)[C@@]4(F)[C@@H](O)C[C@]3(C)[C@]2(C(=O)CO)O1 — AUC(2-58 h) fold change (refers to: human FGF21 protein; CD-1 mouse, plasma; subcutaneous, 0.3 mg/kg mRNA, MC3 LNP with hFGF21 mRNA, steroid/mRNA 2:3; baseline: LNP without steroid): 1.2 fold
